Measured values pooled from the literature.
Parts stem from different laboratories: compare values within a part only.

Set 1
Target: Fragile X messenger ribonucleoprotein 1, C-terminal low-complexity region (Fmr1, Mus musculus, UniProt P35922)
Technique: RNA Bind-n-Seq
Molecule type: RNA
Matrix: in vitro
Concentration: 200 nM
Notes: whole 134-nt RNA, ends assumed
Together with: 150 mM LiCl
Reference: input library
Reading: higher = stronger binding
All molecules: 7-deaza-guanosine replaces G
For `GGGAGUUCUACAGUCCGACGAUCCAAGUCCUGUGCUACACAUCGUAUGUACCGAAUCGGGGAAAGGAAAGGAAAGGGGAAAGUAUUAUGUUACGCCGUUCGGAUCUGCACUUCUGGAAUUCUCGGGUGUCAAGG`, the log2 enrichment was -0.114.
`GGGAGUUCUACAGUCCGACGAUCCUCAAGUCCUGUGCUACACAUCGUAUGUACCGAAUCGGUGGUUUGGUUUUUGGAAAGUAUUAUGUUACGCCGUUCGGAUCUGCACUUCCAUGGAAUUCUCGGGUGUCAAGG` has a log2 enrichment of 0.165.
`GGGAGUUCUACAGUCCGACGAUCGGGCCCUGGUGGCAUGCGGGGAGGAAGAGGUGGCCUCAUGGAUCGUGGUGGUCCCGGUGGAAUGUUCAGAGGUGGCCGUGGUGGAGACAGUGGAAUUCUCGGGUGUCAAGG` gave a log2 enrichment of 0.177.
`GGGAGUUCUACAGUCCGACGAUCCAAGUCCUGUGCUACACAUCGUAUGUACCGAAUCGGGUUUGGGUGGGAAAAAGGGAAAGUAUUAUGUUACGCCGUUCGGAUCUGCACUUCUGGAAUUCUCGGGUGUCAAGG` gave a log2 enrichment of -0.748.

Set 2
Target: Interferon regulatory factor 7, full length, phosphomimetic (IRF7, Homo sapiens, UniProt Q92985, residues 1-503, S101K/S471D/S472D/S475D/S476D/S477D/S483D/S484D/S487D)
Chain of UniProt Q92985 (whole entry, unmodified, looked up): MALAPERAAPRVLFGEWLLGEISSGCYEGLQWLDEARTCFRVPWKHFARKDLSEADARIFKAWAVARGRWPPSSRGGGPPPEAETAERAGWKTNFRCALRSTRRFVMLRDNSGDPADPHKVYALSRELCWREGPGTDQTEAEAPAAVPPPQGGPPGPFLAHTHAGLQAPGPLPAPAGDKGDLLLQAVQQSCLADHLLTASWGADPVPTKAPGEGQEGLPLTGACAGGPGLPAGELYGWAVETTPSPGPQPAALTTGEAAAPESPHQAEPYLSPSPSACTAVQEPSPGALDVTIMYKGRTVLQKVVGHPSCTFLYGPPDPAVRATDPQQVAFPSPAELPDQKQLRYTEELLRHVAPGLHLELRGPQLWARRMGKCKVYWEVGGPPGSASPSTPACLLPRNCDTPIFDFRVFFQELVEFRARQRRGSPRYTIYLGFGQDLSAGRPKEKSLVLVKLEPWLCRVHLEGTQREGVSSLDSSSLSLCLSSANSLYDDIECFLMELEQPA
Technique: protein-binding microarray
Molecule type: double-stranded DNA, one strand shown
Matrix: in vitro
Concentration: 250 nM
Notes: 60-bp whole probe
Together with: salmon DNA 0.4 mg/ml
Reference: random background probes
Reading: higher = stronger binding
Constant ends, left off below: GCCTAGCAC … GTCTTGATTCGCTTGACGCTGCTG
For `GACGGACTGGACACTGGGAACGTGCTA`, the log fluorescence was -0.578 z-score.
With `TCACTCTTGCTTTTTAGACTGTGCTAG` the log fluorescence was 0.429 z-score.
For `GACGATATCCGGTTTCGAGACGTGCTA`, the log fluorescence was 4.06 z-score.
The log fluorescence of `GACGGTATCGGGTATCGGGATGTGCTA` is reported as 0.504 z-score.
`GACGGTTTCGGGTTTCGGGATGTGCTA` gave a log fluorescence of 12 z-score.
For `TTAGGTTCCCTTATCCTTTAGTGCTAG`, the log fluorescence was 1.39 z-score.
With `GACGATGTCAGACTGGAGACGTGCTAG` the log fluorescence was -0.406 z-score.
The log fluorescence of `CACTGACACCGATTTCATCACGTGCTA` is reported as -0.32 z-score.
The log fluorescence of `GACGGTATCGGTCTTGGGACGTGCTAG` is reported as 0.176 z-score.

Set 3
Target: Histone acetyltransferase KAT6A, winged helix 2, GST fusion (KAT6A, Homo sapiens, UniProt Q92794, residues 85-181)
Technique: protein binding microarray
Molecule type: double-stranded DNA, one strand shown
Matrix: in vitro
Concentration: not given
Notes: 8-mer, flanks averaged, mean of 2 arrays, mostly near background
Reference: not given
Reading: higher = stronger binding
Target sequence (chain): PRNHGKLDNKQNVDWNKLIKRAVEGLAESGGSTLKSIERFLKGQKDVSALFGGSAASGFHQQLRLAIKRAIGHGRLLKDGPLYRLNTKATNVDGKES
The E-score of `AGGCGAAC` is reported as 0.1.
For `TGCACCCA`, the E-score was 0.11.
`CCTCCTGA` gave an E-score of -0.0247.
The E-score of `CGAGTCCG` is reported as 0.141.
For `CATGCATG`, the E-score was 0.0239.
The E-score of `CCCACCCA` is reported as -0.12.
For `CGACCAGC`, the E-score was 0.123.
`GCCCCTTA` has an E-score of 0.0147.
For `GTTCCATA`, the E-score was -0.191.
For `AACCTCGC`, the E-score was -0.0347.
`AGAGCAGG` has an E-score of 0.0762.
The E-score of `CAACATTC` is reported as -0.213.
`ACCCAACG` has an E-score of -0.0191.

Single results of other studies
`CAPRIN1 (Homo sapiens, UniProt Q14444)`: cross-linked residues “D94 to E235” (CFAP45 (Homo sapiens, UniProt Q9UL16); cross-linking MS; cell fractions; together with: DHSO).

A few entries again (set 2):
For `TTAGGTTCCCTTATCCTTTAGTGCTAG`, the log fluorescence was 1.39 z-score.
With `GACGATGTCAGACTGGAGACGTGCTAG` the log fluorescence was -0.406 z-score.
The log fluorescence of `CACTGACACCGATTTCATCACGTGCTA` is reported as -0.32 z-score.
The log fluorescence of `GACGGTATCGGTCTTGGGACGTGCTAG` is reported as 0.176 z-score.
